Measurements of several laboratories.
Lines come from different studies, so protocols differ. ± marks the error that the study gave.

O=C(CCc1ccc(CNC(C(=O)OC2CCCC2)C2CCCCC2)cn1)NO (centres unmarked)  IC50 (human CD14+ monocytes; M-CSF differentiation; 4 h then washout, together with: M-CSF): 0.118 µM
C=CC(OC(C)=O)c1ccccc1 (centres unmarked)  IC50 (RT-112; MTT; 24 h): > 50 µM
Cc1c(-c2c3c(N)n[nH]c(=O)c3nn2-c2ccccc2)oc2cc(F)ccc12  IC50 (SNU-16; cell growth or viability): > 1 µM
[Cl][Pt-]1([Cl])[S]C(Nc2ccccc2)=N[N+]1=Cc1cccs1  IC50 (CEM human lymphocytes; cell proliferation): 55 µM
CC(=O)c1cnc(N)nc1N1CC[C@H]1c1nn2ccc(Cl)c2c(=O)n1-c1ccccc1  IC50 (human CD4 T cells; Th1 differentiation, item: IFN-gamma): 0.048 µM
O=C1C(Cl)=C(Cl)C(=O)c2c1cccc2[N+](=O)[O-]  IC50 (MOLT-3; cell growth or viability, XTT; 48 h): 79.9 µM
Cc1nn(-c2ccc(S(=O)(=O)N[C@H](CO)CC(C)C)cc2)c2nn3nnnc3nc12  necrotic cells (HT-29; PI/Hoechst staining; 1 µM, 24 h): 21 ± 1.4%
C=C(C)C(=O)Nc1ccc(-c2c(-c3ccc(Oc4nccc(C)n4)cc3)c3c(N)ncnc3n2C)cc1  IC50 (SNU-16; inhibitor, HTRF, item: ERK phospho-Tyr202/204; 2 h): 0.004 µM
O=C1c2ccc3c4cccc5cccc(c6ccc(c2c36)C(=O)N1CCN1CCCCC1)c54  IC50 (human PBMC; cell growth or viability, SRB; 72 h): 280 µM
O=C(Nc1cc(C(F)F)ns1)Nc1cc(F)ncc1CO  IC50 (SW13 (BRG1/BRM-deficient); cell viability): > 10 µM
Cc1cc(-c2ccc(NC(=O)[C@H](CCCCNC(=O)CCOCCOCCC(=O)N[C@H](Cc3ccccc3)C(=O)N[C@H]3CSSC[C@@H](C(=O)N[C@H](C(=O)O)[C@@H](C)O)NC(=O)[C@H]([C@@H](C)O)NC(=O)[C@H](CCCCN)NC(=O)[C@@H](Cc4c[nH]c5ccccc45)NC(=O)[C@H](Cc4ccc(O)cc4)NC3=O)NC(=O)CN3CCN(CC(=O)O)CCN(CC(=O)O)CCN(CC(=O)O)CC3)c(C)c2)ccc1N=Nc1ccc2c(S(=O)(=O)O)cc(S(=O)(=O)O)c(N)c2c1O [lutetium-177 labelled]  effective half-life (patients with metastatic NETs, liver metastases; intravenous): 145 ± 30.9 h
[Fe+2].c1cc[cH-]c1.c1ccc(P(=NCc2ccccn2)(c2ccccc2)[c-]2cccc2)cc1  IC50 (A2780cisR (cisplatin-resistant); cell growth, MTT; 74 h, 1% DMSO): 30.3 ± 1.6 µM
C=C1C(=O)OC2CC3=C[C@@H](C/C(C)=C/C(OC(=O)Cc4cccc5ccccc45)[C@H]12)OC3=O (some centres unmarked)  IC50 (PC-6; cell growth or viability, MTT; 24 h): 0.34 µM
Cc1cc(NC(=O)c2cccc(-n3cc(NC(=O)Nc4ccccc4)cn3)c2)ccn1  IC50 (SH-SY5Y; in-cell Western, item: phospho-c-Jun; pretreatment 1 h, together with: 35 µM 6-OHDA): 6.64 ± 1.16 µM
[Cl][Cu-][c]1n(-c2c(C(c3ccccc3)c3ccccc3)cc(C(c3ccccc3)c3ccccc3)cc2C(c2ccccc2)c2ccccc2)c2c([n+]1-c1c(C(c3ccccc3)c3ccccc3)cc(C(c3ccccc3)c3ccccc3)cc1C(c1ccccc1)c1ccccc1)-c1cccc3cccc-2c13  IC50 (C13 cisplatin-resistant; cell viability, MTT; 72 h): > 50 µM
N=C(N)c1ccc(-c2ccc(-c3ccco3)o2)nc1  viability (Salmonella typhimurium; liquid broth OD; TA1535; 25 µM, 15 h; baseline: growth): 102 ± 9%
Cc1cc(C)c(-n2c3c([n+](-c4c(C)cc(C)cc4C)[c]2[Cu-][Cl])-c2cccc4cccc-3c24)c(C)c1  IC50 (C13 cisplatin-resistant; cell viability, MTT; 72 h): 4 ± 1 µM
CC(=O)OC[C@]1(C)CCC[C@]2(CO)[C@@H]1CC[C@@]13C[C@@H](C[C@H](O)[C@H]12)[C@H](C)C3=O  IC50 (786-0; cell growth or viability, MTT): 3.8 µM
CCN(CC)C1=[S+][Au-2]2([S]1)[c]1ccccc1-c1cccc[n+]12.F[P-](F)(F)(F)(F)F (centres unmarked)  IC50 (BT-333 glioblastoma; MTT; 72 h): 0.68 ± 0.01 µM
C1=CCC=C1.[Cl][Pd-2]1([Cl])[N+](=P(c2ccccc2)(c2ccccc2)C2C=CC=C2)Cc2cccc[n+]21.[Fe+2]  IC50 (A2780cisR (cisplatin-resistant); cell growth, MTT; 74 h, 1% DMSO): 11.9 ± 2.5 µM
CC(C)c1cccc(C(C)C)c1-n1c(Cl)c(Cl)n(-c2c(C(C)C)cccc2C(C)C)c1=[Se].[Cl][Au]  IC50 (LoVo MDR; MTT; 72 h): 4.1 µM
N#Cc1ccc(-c2ccc(-c3cccs3)o2)cc1  viability (Salmonella typhimurium; liquid broth OD; TA1535; 50 µM, 15 h; baseline: growth): 100 ± 7.3%
O=Cc1c2cc(Cl)ccc2n2c1c(-c1ccccc1)c(SC(F)(F)F)c1ccccc12  IC50 (LS174T; cell growth or viability, MTT; 72 h): > 100 µM
C[n+]1cn([C@@H]2O[C@H](COP(=O)(O)OP(=O)([O-])OP(=O)(O)O)[C@@H](O)[C@H]2O)c2nc(N)nc(O)c21  IC50 (cap-dependent translation, inhibitor; rabbit reticulocyte lysate; 60 min, 30 °C, no preincubation): 3.52 ± 0.25 µM
Cc1cc2nc3n(CCCO)c(-c4cc(C(C)(C)C)c(O)c(C(C)(C)C)c4)cn3c2cc1C  IC50 (HEK293 NF-κB luciferase; NF-κB reporter gene; together with: PMA and ionomycin): > 25 µM
CC(=O)[O-].O.[Cu+2].[O-]c1ccc(Br)cc1C=NCCN1CCOCC1  IC50 (NHDF normal fibroblasts; cell viability, MTT; 72 h): 58.4 µg/mL
